Values quoted from earlier work as cited in several papers.
Compare with care: the assays were run in different laboratories. ± marks the error that the study gave.
Sequence of UniProt P41145 (whole entry, looked up): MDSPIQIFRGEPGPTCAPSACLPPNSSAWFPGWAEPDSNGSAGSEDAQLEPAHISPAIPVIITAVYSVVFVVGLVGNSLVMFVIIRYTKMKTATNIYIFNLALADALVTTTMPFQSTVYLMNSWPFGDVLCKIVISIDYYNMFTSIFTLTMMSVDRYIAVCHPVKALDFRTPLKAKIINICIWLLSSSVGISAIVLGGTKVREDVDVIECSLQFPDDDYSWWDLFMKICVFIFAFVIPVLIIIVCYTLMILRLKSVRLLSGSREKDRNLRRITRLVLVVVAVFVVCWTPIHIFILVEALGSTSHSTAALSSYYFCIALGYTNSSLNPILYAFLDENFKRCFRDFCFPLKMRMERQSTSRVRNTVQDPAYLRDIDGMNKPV
Sequence of UniProt Q01959 (whole entry, looked up): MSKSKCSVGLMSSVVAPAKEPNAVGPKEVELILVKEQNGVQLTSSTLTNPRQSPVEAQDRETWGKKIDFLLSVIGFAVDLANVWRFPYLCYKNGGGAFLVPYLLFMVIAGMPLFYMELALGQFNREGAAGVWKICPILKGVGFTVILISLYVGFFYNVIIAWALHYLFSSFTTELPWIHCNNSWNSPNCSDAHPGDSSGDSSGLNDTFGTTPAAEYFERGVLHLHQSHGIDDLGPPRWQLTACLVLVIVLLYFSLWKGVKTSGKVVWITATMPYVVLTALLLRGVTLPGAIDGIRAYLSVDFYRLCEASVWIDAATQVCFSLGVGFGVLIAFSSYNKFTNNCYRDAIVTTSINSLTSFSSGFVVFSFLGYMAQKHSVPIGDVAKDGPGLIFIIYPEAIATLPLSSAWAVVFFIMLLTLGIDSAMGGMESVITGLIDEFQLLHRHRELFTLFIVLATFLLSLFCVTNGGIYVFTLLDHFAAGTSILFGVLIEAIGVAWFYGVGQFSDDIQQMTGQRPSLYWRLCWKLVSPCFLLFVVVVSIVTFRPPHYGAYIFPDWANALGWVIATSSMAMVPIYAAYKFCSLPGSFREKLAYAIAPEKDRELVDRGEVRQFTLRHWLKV

| SMILES | target | observed | mode | technique | with | quantity | value |
| --- | --- | --- | --- | --- | --- | --- | --- |
| COC(=O)C1C(c2ccc(C)cc2)CC2CCC1N2CC#CC[18F] (stereo not drawn) | SLC6A3 (Homo sapiens, UniProt Q01959) | – | inhibitor | – | – | IC50 | 3.3 nM |
| OC[C@H]1N[C@H](CO)[C@@H](O)[C@@H]1O | yeast α-glucosidase | – | – | – | – | Ki | 330 nM |
| CCCCCn1cc(C(=O)N2CCN(C)CC2)c2ccccc21 | cannabinoid CB2 receptor | binding | – | – | – | Ki | > 1000 nM |
| CC(C)N(CCc1c[nH]c2ccc(O)cc12)C(C)C | 5-HT2A receptor | binding | – | – | – | Ki | 5.6 nM |
| C[C@H]1[C@H](O)[C@@H](O)CN1C(=O)c1ccccc1 | Penicillium decumbens α-L-rhamnosidase | – | – | – | – | Ki | 46000 nM |
| CCCCCn1cc(C(=O)c2cccc3c2CC(C)(C)C3)c2ccccc21 | cannabinoid receptor CB2 | binding | – | – | – | Ki | 1.36 ± 0.52 nM |
| Cc1cc(-c2ccccc2)n2nc(C(=O)Nc3sc4c(c3C(N)=O)CCCCC4)nc2n1 | Polymerase acidic protein, with PB1, PB2 (Influenza A virus, UniProt P03433) | RdRP activity | – | minireplicon | – | IC50 | 12000 nM |
| CCOC(=O)C1C(OC(c2ccc(Cl)cc2)c2ccc(Cl)cc2)CC2CCC1N2C (single isomer, unassigned) | muscarinic M1 receptor | – | – | – | – | Ki | 3060 ± 150 nM |
| O=C(N[C@@H]1CC[C@@]2(O)[C@H]3Cc4ccc(O)c5c4[C@@]2(CCN3CC2CC2)[C@H]1O5)c1cccc2ccoc12 | OPRK1 (Homo sapiens, UniProt P41145) | binding | – | – | [3H]diprenorphine | Ki | 0.81 ± 0.14 nM |
